{"data": "Results pooled from the literature", "note": "Each numbered part is a random draw from the data of one study; scales do not carry over between parts. Positions count from the first letter of the parent shown."}
{"data": "Series 1", "target": "RING finger protein unkempt homolog, zinc fingers 1-6, GST-SBP tag (UNK, Homo sapiens, UniProt Q9C0B0, residues 30-357)", "method": "RNA Bind-n-Seq", "form": "RNA", "matrix": "in vitro", "tested at": "not given", "setting": "RNA with constant flanks, human-mouse chimeric sites, ends assumed", "relative to": "input RNA pool", "direction": "higher = stronger binding", "constant ends, left off below": "GGGAGUUCUACAGUCCGACGAUC … CAACAGAGGAUUGAGCAUCA", "Target sequence (chain)": "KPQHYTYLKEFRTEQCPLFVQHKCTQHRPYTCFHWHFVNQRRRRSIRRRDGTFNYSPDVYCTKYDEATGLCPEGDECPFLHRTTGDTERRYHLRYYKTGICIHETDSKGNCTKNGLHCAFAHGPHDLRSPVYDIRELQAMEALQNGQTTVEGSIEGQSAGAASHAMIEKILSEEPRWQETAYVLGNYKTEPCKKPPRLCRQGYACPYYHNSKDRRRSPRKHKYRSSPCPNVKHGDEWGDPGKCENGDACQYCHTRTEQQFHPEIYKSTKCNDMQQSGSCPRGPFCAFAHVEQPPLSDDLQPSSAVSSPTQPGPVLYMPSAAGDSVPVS"}
{"Strand": "UUUCUACUGCAGCAAACGAUGCUAAGAAUUAAGGAUCCUAAGAAGUCCCUGGAUUUUUAUACGAGGGUUCUUGGAAUGACGCUAAUCCAGAAGCUUGACUUCCCUGCUAUGAAGUUCUCG", "bound/input enrichment [ratio]": 0.136}
{"Strand": "UUAAUCCCCUUUACUGCUCCCCCACUUCUCAUGGUAAUAACAAAGUCUUAUAUCCCCAUAUUAGCUUUCACUCAGAUGGCUUAUGGAGCCGGUUUCCUAGCUUUCUUGGGUGGGAUCAGA", "bound/input enrichment [ratio]": 0.455}
{"Strand": "AGGAGGAGGUUAAAGGGUGAGAGUGGGGUGGAAGACUGUGUCAUGGCUCUGGAGACACUGUUCAGUGUCCUGCUUUCUCUUUGCAGACUGAUGGCCCCUUACACGCCCUUUCUGACUGAG", "bound/input enrichment [ratio]": 0.0748}
{"Strand": "CCCCAAUACCAUUUGCAGGUCUGGAACUGCACUCUCUUUUUUAAAAAACAUGUAUACAUUUUAGGGCUGUAGACUUAUUUUCCUGGUUUUGUUUUUCAUUGCUGACUUUUGAGCACAGAA", "bound/input enrichment [ratio]": 1.71}
{"Strand": "AAAGAGAAACUAAAGCAAACUGAUUGAAAGAGGAUUGGGCAAAGAGAUUUCAUAGAGAAACUAGGAUUUAUUAGCAAACAUGAGUUAUAUUCCAGAGCGUCUCAGAAACCCCAGCCAAAC", "bound/input enrichment [ratio]": 2.74}
{"Strand": "CAGUCCCCGUGUCCCAGUGCAGGACGAGAACAUGGACAACUCAAAGCGGACCCUCUAUUGUAGUUCUUGAUUCUCGAAAUGUGCUAUUAUUGUUUGUCUUUUUUUUUAAAAGAAAAGAGA", "bound/input enrichment [ratio]": 0.116}
{"Strand": "GCUCUUGGGAAUGUAAUCAGCGCCUUGGGGGACAAGAGCAAGAGGGCCACCCAUGUCCCUUACAGAGACUCUAAGCUGACAAGACUCUUGCAGGAUUCCCUUGGGGGUAAUAGCCAAACC", "bound/input enrichment [ratio]": 0.187}
{"Strand": "UCUUAACUUAUUCAUUUAACUUAUUUUUAUAGCUAGAUAAAUAUUGUUAGUCUUAGUCAAUAGCUCACAUUUUUUGAGAAGCAUGCCCUCCCUAUCCAUUUGUCUUAUAACAUGACCCAG", "bound/input enrichment [ratio]": 12}
{"Strand": "CCCUCCCCGGGCCACCCACCCCUCCCGCUCCCAGCGGGAGAUCCAGGUUUCUUCUUAUUUCAUAGCAAAUAAGAAAAAUGUUCUACGCACAUUUUGUCCUCAGUAAAAGAGGGCCUCUGG", "bound/input enrichment [ratio]": 0.313}
{"Strand": "UAAGUUAUUUUGUACAGCUUUGUAAAUUCUUAACAUUUUUAUAUUGCACAUUUUAUGUUGUUUGGGUAAUUUGGUUCAUUAAGUACAUAGCUAAGGUAAUGAACAUCGUAAUUAUAGAUU", "bound/input enrichment [ratio]": 1.6}
{"Strand": "UCUUUAAAAAAAAAAUUACCUUUUCUGACAGUGCUUUAUGGAGUAAAGAUCCACGUUCAAGCUCAAAGAGCAAAGGCUUUGCACGGAGCUCAAACAUCUGAUGAAGAAAGAUUUCUGAGA", "bound/input enrichment [ratio]": 0.109}
{"data": "Series 2", "target": "CCNE1, cyclin fold, Cln2 fusion (human)", "method": "yeast growth competition, sequencing", "matrix": "yeast", "setting": "weak parent motif", "relative to": "not given", "direction": "higher = stronger binding", "parent": "ORC1 docking peptide (human); PRARKRLELGNLG"}
{"Variant": "E8A", "normalised enrichment score": 0.581}
{"Variant": "N11Q", "normalised enrichment score": -0.893}
{"Variant": "L9V", "normalised enrichment score": 1.04}
{"Variant": "L7E", "normalised enrichment score": 0.338}
{"Variant": "E8T", "normalised enrichment score": -0.0804}
{"Variant": "N11Y", "normalised enrichment score": 1.3}
{"Variant": "G10N", "normalised enrichment score": -0.266}
{"Variant": "P1D", "normalised enrichment score": 1}
{"Variant": "G10F", "normalised enrichment score": 0.716}
{"Variant": "R2N", "normalised enrichment score": 0.576}
{"Variant": "N11M", "normalised enrichment score": 1.32}
{"Variant": "L12Y", "normalised enrichment score": 0.188}
{"Variant": "L12T", "normalised enrichment score": 0.0913}
{"Variant": "R2C", "normalised enrichment score": 0.154}
{"Variant": "G13K", "normalised enrichment score": 0.952}
{"Variant": "L7T", "normalised enrichment score": -0.455}
{"Variant": "R2T", "normalised enrichment score": 1.2}
{"Variant": "G10E", "normalised enrichment score": 0.208}
{"Variant": "L7G", "normalised enrichment score": -0.505}
{"Variant": "R4T", "normalised enrichment score": 0.876}
{"Variant": "A3R", "normalised enrichment score": -0.191}
{"data": "Series 3", "target": "Histone acetyltransferase KAT6A, winged helix 1, GST fusion (KAT6A, Homo sapiens, UniProt Q92794, residues 1-85)", "method": "protein binding microarray", "form": "double-stranded DNA, one strand shown", "matrix": "in vitro", "tested at": "not given", "setting": "8-mer, flanks averaged, mean of 2 arrays, mostly near background", "relative to": "not given", "direction": "higher = stronger binding", "Residues (chain)": "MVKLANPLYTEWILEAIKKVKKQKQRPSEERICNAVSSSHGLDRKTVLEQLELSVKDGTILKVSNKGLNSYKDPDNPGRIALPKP"}
{"Strand": "CATGCGAC", "E-score": 0.135}
{"Strand": "CCTAGTAA", "E-score": -0.00863}
{"Strand": "CAGATCCG", "E-score": 0.114}
{"Strand": "GAGTAAGA", "E-score": -0.106}
{"Strand": "CCCTAATC", "E-score": -0.195}
{"Strand": "GAGATTAC", "E-score": 0.102}
{"Strand": "CAAACTCG", "E-score": -0.00915}
{"Strand": "GTTCCACA", "E-score": -0.12}
{"Strand": "AGGGTCGG", "E-score": 0.127}
{"Strand": "ACATACAA", "E-score": -0.0107}
{"Strand": "CAACTGGG", "E-score": -0.211}
{"Strand": "CTAGCAGC", "E-score": -0.214}
{"Strand": "CAACAGCG", "E-score": 0.18}
{"Strand": "ATACTCCC", "E-score": 0.0587}
{"Strand": "GCGTTAGC", "E-score": 0.248}
{"Strand": "GACAACCA", "E-score": -0.128}
{"Strand": "CATCCATC", "E-score": -0.0594}
{"Strand": "ACCTGCCG", "E-score": 0.0883}
{"Strand": "AGCGCCTC", "E-score": 0.229}
{"Strand": "AAATAGGT", "E-score": -0.185}
{"Strand": "AGCGCTTG", "E-score": 0.318}
{"Strand": "ACGAGAGC", "E-score": -0.0126}
{"Strand": "AATGTACG", "E-score": -0.0224}
{"Strand": "CAAATGAA", "E-score": -0.213}
{"data": "Series 4", "target": "ABI1, truncated, D143A, DHFR fusion (Arabidopsis thaliana)", "method": "DHFR PCA, deep sequencing", "matrix": "yeast", "setting": "methotrexate growth selection, single substitutions", "with": "(+)-ABA 710 µM", "relative to": "wild-type fitted maximum", "direction": "higher = stronger binding", "parent": "PYL1, truncated, DHFR fusion (Arabidopsis thaliana); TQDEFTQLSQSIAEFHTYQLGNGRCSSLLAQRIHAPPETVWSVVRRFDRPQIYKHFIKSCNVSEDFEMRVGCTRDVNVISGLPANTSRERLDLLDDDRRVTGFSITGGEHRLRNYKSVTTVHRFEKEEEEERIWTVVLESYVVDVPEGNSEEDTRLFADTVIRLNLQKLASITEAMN"}
{"Variant": "M176P", "relative binding score": "105%"}
{"Variant": "V118T", "relative binding score": "111%"}
{"Variant": "S87V", "relative binding score": "76%"}
{"Variant": "Q7T", "relative binding score": "107%"}
{"Variant": "N77T", "relative binding score": "103%"}
{"Variant": "V44Y", "relative binding score": "9.52%"}
{"Variant": "N149W", "relative binding score": "13.1%"}
{"Variant": "L138S", "relative binding score": "25.3%"}
{"Variant": "I133M", "relative binding score": "103%"}
{"Variant": "R155A", "relative binding score": "90%"}
{"Variant": "D153E", "relative binding score": "106%"}
{"Variant": "K58F", "relative binding score": "84.5%"}
{"Variant": "S63L", "relative binding score": "96.9%"}
{"Variant": "Q167K", "relative binding score": "106%"}
{"Variant": "R74Q", "relative binding score": "-25.3%"}
{"Variant": "H16S", "relative binding score": "26.2%"}
{"Variant": "W41M", "relative binding score": "1.92%"}
{"Variant": "N22V", "relative binding score": "104%"}
{"Variant": "I105C", "relative binding score": "94.6%"}
{"Variant": "Y115H", "relative binding score": "17.5%"}
{"Variant": "K54N", "relative binding score": "35.1%"}
{"data": "Series 5", "target": "Interferon regulatory factor 5, full length, phosphomimetic (IRF5, Homo sapiens, UniProt Q13568-2, residues 1-514, K96S/S451D/S453D/S456D/S462D)", "method": "protein-binding microarray", "form": "double-stranded DNA, one strand shown", "matrix": "in vitro", "tested at": "250 nM", "setting": "60-bp whole probe", "with": "salmon DNA 0.4 mg/ml", "relative to": "random background probes", "direction": "higher = stronger binding", "constant ends, left off below": "GCCTAGCAC … GTCTTGATTCGCTTGACGCTGCTG"}
{"Strand": "TTACATTCCCCATTGTGTTGGTGCTAG", "log fluorescence": "0.246 z-score"}
{"Strand": "CTAGGTATCGACTTTCGGTTAGTGCTA", "log fluorescence": "10.1 z-score"}
{"Strand": "TTAAATATCAGTCTCGATTAGTGCTAG", "log fluorescence": "2.49 z-score"}
{"Strand": "TTAGGTTTCTGTTTCGGTTAGTGCTAG", "log fluorescence": "9.85 z-score"}
{"Strand": "TTGTTTTTCATTATTGTCTCGTGCTAG", "log fluorescence": "2.34 z-score"}
{"Strand": "GATGGTTTCGACACTGGGGACGTGCTA", "log fluorescence": "5.24 z-score"}
{"Strand": "TCATACCTCATCTTTCCCACTGTGCTA", "log fluorescence": "0.516 z-score"}
{"Strand": "TCAAGTATGACTCTGCCACTGTGCTAG", "log fluorescence": "-0.173 z-score"}
{"Strand": "TAAGGTTTCCTTTTCCTTTAGTGCTAG", "log fluorescence": "1.28 z-score"}
{"Strand": "GACGGTTTCCGACTGGGGACGTGCTAG", "log fluorescence": "0.303 z-score"}
{"Strand": "GACGGTATCCGTCTCCTGACGTGCTAG", "log fluorescence": "-0.102 z-score"}
{"Strand": "TCACATTCACCTGTCGTACTGTGCTAG", "log fluorescence": "0.495 z-score"}
{"Strand": "GAGGGTATCGGGACTGGGGACGTGCTA", "log fluorescence": "0.535 z-score"}
{"Strand": "TCAGGTATAGCACTAAGACTGTGCTAG", "log fluorescence": "-0.167 z-score"}
{"Strand": "GACGGTATCGGTCTCGGAACGTGCTAG", "log fluorescence": "5.65 z-score"}
{"Strand": "TTAGATCTCAGTCTCGACTAGTGCTAG", "log fluorescence": "0.252 z-score"}
{"Strand": "GACGCTTTCAGTATCGAGACGTGCTAG", "log fluorescence": "5.97 z-score"}
{"Strand": "GACGGTATCGACTATCGGGACGTGCTA", "log fluorescence": "3.71 z-score"}
{"Strand": "GACGATTTCAGCCTGGAGACGTGCTAG", "log fluorescence": "0.416 z-score"}
{"Strand": "TTACGTTTCCTTCTCCTTTAGTGCTAG", "log fluorescence": "2.08 z-score"}
{"Strand": "GGCGATATCAGTATCGAGACGTGCTAG", "log fluorescence": "3.24 z-score"}
{"Strand": "TTCCAACTCTGTTTTCGCTTGTGCTAG", "log fluorescence": "2.87 z-score"}
{"Strand": "GACGATATCGGGACTGTAGACGTGCTA", "log fluorescence": "1.02 z-score"}
{"Strand": "GACGATTTAGGGTATCGAGACGTGCTA", "log fluorescence": "0.406 z-score"}
{"Strand": "TCAAGTTTATACCTTAGACTGTGCTAG", "log fluorescence": "-0.158 z-score"}
{"note": "Excerpt of the above (series 2):"}
{"Variant": "G10N", "normalised enrichment score": -0.266}
{"Variant": "L7E", "normalised enrichment score": 0.338}
{"Variant": "P1D", "normalised enrichment score": 1}
{"Variant": "E8A", "normalised enrichment score": 0.581}
{"Variant": "G10F", "normalised enrichment score": 0.716}
{"Variant": "E8T", "normalised enrichment score": -0.0804}
{"Variant": "L7G", "normalised enrichment score": -0.505}
{"Variant": "R4T", "normalised enrichment score": 0.876}
